Experimental data pooled from the literature.
Each numbered part is a random draw from the data of one study; scales do not carry over between parts. “And” joins repeats or separate records; there may be more than shown.
Chain of UniProt P35968 (whole entry, looked up): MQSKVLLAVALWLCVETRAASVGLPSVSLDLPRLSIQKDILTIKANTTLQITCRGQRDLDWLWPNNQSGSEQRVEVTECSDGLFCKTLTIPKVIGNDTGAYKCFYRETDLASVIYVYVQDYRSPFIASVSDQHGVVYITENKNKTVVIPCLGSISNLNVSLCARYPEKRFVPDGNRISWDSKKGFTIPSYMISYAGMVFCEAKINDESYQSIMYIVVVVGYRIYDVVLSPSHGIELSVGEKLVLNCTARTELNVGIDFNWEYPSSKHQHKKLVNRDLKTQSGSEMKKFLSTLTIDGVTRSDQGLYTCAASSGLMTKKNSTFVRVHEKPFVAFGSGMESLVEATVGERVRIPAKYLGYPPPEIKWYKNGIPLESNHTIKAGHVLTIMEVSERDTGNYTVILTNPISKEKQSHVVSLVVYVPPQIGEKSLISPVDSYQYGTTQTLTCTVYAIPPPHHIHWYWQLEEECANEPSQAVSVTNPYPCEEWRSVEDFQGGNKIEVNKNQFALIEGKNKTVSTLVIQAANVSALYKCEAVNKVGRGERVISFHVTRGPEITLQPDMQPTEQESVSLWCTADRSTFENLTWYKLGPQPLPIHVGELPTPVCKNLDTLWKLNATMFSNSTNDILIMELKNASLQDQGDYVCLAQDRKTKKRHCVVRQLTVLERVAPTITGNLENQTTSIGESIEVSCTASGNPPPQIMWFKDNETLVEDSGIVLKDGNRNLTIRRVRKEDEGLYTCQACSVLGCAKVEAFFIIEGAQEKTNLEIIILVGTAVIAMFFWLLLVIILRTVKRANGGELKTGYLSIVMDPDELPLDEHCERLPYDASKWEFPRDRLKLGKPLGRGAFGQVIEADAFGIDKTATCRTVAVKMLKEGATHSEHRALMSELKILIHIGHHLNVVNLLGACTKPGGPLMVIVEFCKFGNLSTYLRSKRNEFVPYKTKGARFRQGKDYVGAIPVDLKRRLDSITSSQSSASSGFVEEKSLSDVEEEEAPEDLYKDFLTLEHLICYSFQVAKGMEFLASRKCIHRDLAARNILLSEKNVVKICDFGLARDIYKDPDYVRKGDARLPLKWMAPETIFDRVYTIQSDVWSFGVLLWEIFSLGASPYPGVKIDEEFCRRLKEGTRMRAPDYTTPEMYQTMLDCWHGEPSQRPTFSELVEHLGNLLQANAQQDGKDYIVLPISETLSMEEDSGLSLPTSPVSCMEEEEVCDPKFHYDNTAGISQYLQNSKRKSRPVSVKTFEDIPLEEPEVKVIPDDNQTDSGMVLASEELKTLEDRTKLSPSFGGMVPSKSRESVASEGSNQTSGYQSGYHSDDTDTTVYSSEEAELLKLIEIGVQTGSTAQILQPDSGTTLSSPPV
Chain of UniProt Q7KZI7 (whole entry, looked up): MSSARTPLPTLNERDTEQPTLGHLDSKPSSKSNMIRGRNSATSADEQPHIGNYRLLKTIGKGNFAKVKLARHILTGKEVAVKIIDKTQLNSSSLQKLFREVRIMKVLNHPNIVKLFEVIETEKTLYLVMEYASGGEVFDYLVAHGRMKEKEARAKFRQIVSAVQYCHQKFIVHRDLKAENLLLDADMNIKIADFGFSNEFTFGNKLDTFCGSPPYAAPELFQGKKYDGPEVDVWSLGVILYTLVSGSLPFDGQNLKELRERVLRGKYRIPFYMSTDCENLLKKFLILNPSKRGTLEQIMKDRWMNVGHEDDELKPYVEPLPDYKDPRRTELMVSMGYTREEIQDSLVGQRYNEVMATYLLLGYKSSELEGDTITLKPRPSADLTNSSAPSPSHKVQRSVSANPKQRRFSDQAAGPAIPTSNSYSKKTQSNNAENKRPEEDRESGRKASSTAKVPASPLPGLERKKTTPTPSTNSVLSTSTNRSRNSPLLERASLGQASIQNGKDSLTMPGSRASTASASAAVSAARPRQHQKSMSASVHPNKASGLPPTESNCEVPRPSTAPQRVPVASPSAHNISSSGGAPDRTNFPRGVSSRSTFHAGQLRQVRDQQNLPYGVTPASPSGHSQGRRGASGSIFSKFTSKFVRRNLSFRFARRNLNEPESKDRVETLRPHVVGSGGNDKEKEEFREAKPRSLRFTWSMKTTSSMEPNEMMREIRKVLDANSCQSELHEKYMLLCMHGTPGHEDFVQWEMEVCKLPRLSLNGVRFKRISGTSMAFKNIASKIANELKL
Chain of UniProt Q15759 (whole entry, looked up): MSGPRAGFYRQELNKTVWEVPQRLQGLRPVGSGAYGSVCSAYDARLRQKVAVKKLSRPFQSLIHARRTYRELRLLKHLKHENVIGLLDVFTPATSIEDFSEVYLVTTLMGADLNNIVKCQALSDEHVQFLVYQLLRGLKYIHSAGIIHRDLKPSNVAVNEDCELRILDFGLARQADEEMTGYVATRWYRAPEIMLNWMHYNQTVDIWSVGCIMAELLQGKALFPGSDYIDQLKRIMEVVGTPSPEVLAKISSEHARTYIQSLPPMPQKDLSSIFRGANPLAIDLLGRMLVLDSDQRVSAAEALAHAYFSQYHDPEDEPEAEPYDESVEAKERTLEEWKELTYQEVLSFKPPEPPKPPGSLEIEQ
Chain of UniProt P49761 (whole entry, looked up): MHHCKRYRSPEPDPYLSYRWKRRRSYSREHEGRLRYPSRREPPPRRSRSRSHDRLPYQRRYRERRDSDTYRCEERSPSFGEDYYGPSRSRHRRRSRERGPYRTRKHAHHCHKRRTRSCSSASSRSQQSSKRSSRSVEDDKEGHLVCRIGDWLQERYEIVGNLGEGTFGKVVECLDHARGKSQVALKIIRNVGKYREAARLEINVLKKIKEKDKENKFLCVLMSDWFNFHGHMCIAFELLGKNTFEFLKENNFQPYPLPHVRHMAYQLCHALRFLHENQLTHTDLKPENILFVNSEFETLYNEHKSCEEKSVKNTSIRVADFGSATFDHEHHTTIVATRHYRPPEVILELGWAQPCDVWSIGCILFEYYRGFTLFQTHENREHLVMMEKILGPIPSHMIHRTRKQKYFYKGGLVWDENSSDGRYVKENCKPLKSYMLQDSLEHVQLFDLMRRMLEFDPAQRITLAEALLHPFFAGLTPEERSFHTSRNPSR
Chain of UniProt Q86UE8 (whole entry, looked up): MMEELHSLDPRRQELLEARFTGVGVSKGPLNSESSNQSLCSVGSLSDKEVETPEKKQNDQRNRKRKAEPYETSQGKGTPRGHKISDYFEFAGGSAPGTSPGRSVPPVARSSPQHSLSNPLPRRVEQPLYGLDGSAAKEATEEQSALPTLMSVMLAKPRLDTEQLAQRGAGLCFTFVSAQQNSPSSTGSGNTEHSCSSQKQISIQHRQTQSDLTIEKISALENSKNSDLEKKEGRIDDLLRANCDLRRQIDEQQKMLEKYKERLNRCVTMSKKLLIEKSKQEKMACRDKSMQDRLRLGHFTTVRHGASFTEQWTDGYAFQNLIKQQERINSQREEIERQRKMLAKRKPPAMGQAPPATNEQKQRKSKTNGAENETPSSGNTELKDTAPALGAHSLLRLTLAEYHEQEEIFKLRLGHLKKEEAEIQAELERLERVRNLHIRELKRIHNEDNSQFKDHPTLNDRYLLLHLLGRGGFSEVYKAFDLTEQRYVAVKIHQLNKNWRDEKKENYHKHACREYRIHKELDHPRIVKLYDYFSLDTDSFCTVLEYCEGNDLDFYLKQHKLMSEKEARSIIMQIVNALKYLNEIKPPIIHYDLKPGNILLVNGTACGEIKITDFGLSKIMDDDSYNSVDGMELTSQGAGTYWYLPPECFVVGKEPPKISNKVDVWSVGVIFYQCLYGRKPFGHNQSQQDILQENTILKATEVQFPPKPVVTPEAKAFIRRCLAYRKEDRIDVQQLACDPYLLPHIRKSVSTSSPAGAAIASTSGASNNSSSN
Chain of UniProt Q16539 (whole entry, looked up): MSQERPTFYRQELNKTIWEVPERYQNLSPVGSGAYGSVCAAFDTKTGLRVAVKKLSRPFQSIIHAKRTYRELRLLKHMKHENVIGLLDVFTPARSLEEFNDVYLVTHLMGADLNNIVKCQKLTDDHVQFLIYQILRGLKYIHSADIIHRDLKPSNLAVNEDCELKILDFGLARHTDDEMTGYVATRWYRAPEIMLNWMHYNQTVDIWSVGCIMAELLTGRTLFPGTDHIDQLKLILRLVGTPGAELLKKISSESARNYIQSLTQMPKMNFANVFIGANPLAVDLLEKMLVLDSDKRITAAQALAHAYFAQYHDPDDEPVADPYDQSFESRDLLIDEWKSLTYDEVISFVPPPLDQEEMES

Block 1
Target: D(4) dopamine receptor (DRD4, Homo sapiens, UniProt P21917)
Chain of UniProt P21917 (whole entry, looked up): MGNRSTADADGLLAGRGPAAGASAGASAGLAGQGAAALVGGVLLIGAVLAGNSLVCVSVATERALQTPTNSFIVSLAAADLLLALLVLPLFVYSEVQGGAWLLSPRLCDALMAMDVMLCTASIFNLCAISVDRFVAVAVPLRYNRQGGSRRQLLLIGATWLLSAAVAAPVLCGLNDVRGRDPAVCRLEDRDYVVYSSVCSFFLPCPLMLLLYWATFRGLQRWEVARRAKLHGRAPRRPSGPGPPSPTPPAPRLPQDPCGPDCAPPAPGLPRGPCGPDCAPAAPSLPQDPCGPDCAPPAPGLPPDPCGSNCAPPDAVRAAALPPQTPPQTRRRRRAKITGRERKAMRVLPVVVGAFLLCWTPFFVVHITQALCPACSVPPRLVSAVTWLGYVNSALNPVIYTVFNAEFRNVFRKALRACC
Observed: binding
Method: radioligand binding
Tested at: 10 µM
Measurement: inhibition
CC1=C(C#N)[C@@H](c2ccc3[nH]nc(C)c3c2)C(C#N)=C(c2ccc(Cl)cc2)N1: 5.34%
O=C1CCc2cc(Nc3cc(OC4CCOCC4)c([N+](=O)[O-])cc3Cl)ccc2N1: -2.6%
O=C(Nc1cnc(Oc2ccc(F)cc2)nc1)N1CCc2ncccc2[C@@H]1c1ccc(F)cc1: 43.8%
O=C(O)c1cc(-c2ccc(C3CCNCC3)cc2)c2ccc(-c3ccc(C(F)(F)F)cc3)cc2c1: 10.4%
CCOC(=O)c1cc2cc(-c3cc(C(=O)NCc4ccc(C(=O)O)cc4)nn3C)ccc2[nH]1: -19.3%
CN(C)C(=O)Cn1cc(-c2nc([C@@](C)(c3ccc(-c4cnc(N)nc4)cc3)C3CC3)no2)cn1: 1.48%
CC(=O)N1CCC(c2ccc(C(=O)NC(=N)N)cc2C(F)(F)F)CC1: -5.7%

Block 2
SMILES: FC(F)(F)c1ccc(/C=C/c2nc(COc3ccc(CCCCn4ccnn4)cc3)co2)cc1
Observed: enzyme activity
Action: inhibitor
Tested at: 0.5 µM
Relative to: control
Measurement: remaining activity
Serine/threonine-protein kinase DCLK2 (DCLK2, Homo sapiens, UniProt Q8N568): 102%
Serine/threonine-protein kinase MARK2 (MARK2, Homo sapiens, UniProt Q7KZI7): 105%
Mitogen-activated protein kinase 14 (MAPK14, Homo sapiens, UniProt Q16539): 103%
Mitogen-activated protein kinase 1 (MAPK1, Homo sapiens, UniProt P28482): 88.6%
Serine/threonine-protein kinase tousled-like 2 (TLK2, Homo sapiens, UniProt Q86UE8): 98.6%
Serine/threonine-protein kinase Nek3 (NEK3, Homo sapiens, UniProt P51956): 100%
cGMP-dependent protein kinase 2 (PRKG2, Homo sapiens, UniProt Q13237): 89.9%
Vascular endothelial growth factor receptor 2 (KDR, Homo sapiens, UniProt P35968): 106%
Dual specificity protein kinase CLK3 (CLK3, Homo sapiens, UniProt P49761): 92.2%
Serine/threonine-protein kinase MRCK beta (CDC42BPB, Homo sapiens, UniProt Q9Y5S2): 100%
Cyclin-dependent kinase 1, with cyclin A (CDK1, Homo sapiens, UniProt P06493): 92.6%
Dual specificity mitogen-activated protein kinase kinase 1 (MAP2K1, Homo sapiens, UniProt Q02750): 120%
RAC-beta serine/threonine-protein kinase (AKT2, Homo sapiens, UniProt P31751): 99.9%
Mitogen-activated protein kinase 11 (MAPK11, Homo sapiens, UniProt Q15759): 102%

Block 3
Cell line: A-375
Tested at: 100 µM
Time: 18 h
Measurement: viability
COc1ccc([C@@H]2CC(=O)c3c(O)cc(O[C@@H]4O[C@H](CO[C@@H]5O[C@@H](C)[C@H](O)[C@@H](O)[C@H]5O)[C@@H](O)[C@H](O)[C@H]4O)cc3O2)cc1OC: 98%
CC(=O)NCCCS(=O)(=O)O: 93.5%
CCCCC1=NC2(CCCC2)C(=O)N1Cc1ccc(-c2ccccc2-c2nnn[nH]2)cc1: 98.7%
C[C@]12C=CC(=O)C=C1CC[C@H]1[C@@H]3C[C@@H](O)[C@](O)(C(=O)CO)[C@@]3(C)C[C@H](O)[C@@]12F: 90.9%
CC(C)C(=O)Nc1ccc([N+](=O)[O-])c(C(F)(F)F)c1: 35.9%
O=C(O)CCC(=O)c1ccc(-c2ccccc2)cc1: 103%
Cc1nc(Nc2ccc(F)cc2)nc(N2CCc3ccccc3C2C)c1C (stereo not shown): 15.6%
C=C[C@H]1[C@H](O[C@@H]2O[C@H](CO)[C@@H](O)[C@H](O)[C@H]2O)OC=C2C(=O)OCC[C@]21O: 92.9%
CN1CCc2nc(C(=O)N[C@@H]3C[C@@H](C(=O)N(C)C)CC[C@@H]3NC(=O)C(=O)Nc3ccc(Cl)cn3)sc2C1: 104% and 89.7%

Block 4
Target: Calcium/calmodulin-dependent protein kinase type II subunit alpha (CAMK2A, Homo sapiens, UniProt Q9UQM7)
Chain of UniProt Q9UQM7 (whole entry, looked up): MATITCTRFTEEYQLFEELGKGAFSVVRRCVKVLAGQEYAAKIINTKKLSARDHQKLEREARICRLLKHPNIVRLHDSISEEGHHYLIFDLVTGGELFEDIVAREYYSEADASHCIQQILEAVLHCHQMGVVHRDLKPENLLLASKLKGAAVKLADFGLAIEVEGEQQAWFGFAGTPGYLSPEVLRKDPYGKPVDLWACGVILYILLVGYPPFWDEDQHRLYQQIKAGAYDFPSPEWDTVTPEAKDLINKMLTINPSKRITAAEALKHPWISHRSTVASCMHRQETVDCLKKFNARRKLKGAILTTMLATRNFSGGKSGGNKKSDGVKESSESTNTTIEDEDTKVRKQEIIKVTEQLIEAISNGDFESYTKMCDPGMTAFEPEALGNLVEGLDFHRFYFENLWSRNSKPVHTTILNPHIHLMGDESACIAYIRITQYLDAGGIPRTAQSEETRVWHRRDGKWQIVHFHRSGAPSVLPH
Observed: enzyme activity
Action: inhibitor
Tested at: 10 µM
Measurement: inhibition
C#C[C@]1(OC(C)=O)CC[C@H]2[C@@H]3CCC4=CC(=NO)CC[C@@H]4[C@H]3CC[C@@]21CC (mixture of isomers): 3%
O=C(O)Cc1c[nH]c2ccccc12: 12%
C[C@]12CC[C@H]3[C@@H](CC=C4C[C@@H](O)CC[C@@]43C)[C@@H]1CC[C@@H]2C(=O)CO: -36%
COc1cc2nc(N3CCN(C(=O)c4ccco4)CC3)nc(N)c2cc1OC: -7%

Repeated from above (block 1):
CC1=C(C#N)[C@@H](c2ccc3[nH]nc(C)c3c2)C(C#N)=C(c2ccc(Cl)cc2)N1: 5.34%
O=C1CCc2cc(Nc3cc(OC4CCOCC4)c([N+](=O)[O-])cc3Cl)ccc2N1: -2.6%
O=C(Nc1cnc(Oc2ccc(F)cc2)nc1)N1CCc2ncccc2[C@@H]1c1ccc(F)cc1: 43.8%
